Measured values collected from several papers.
Each line is one published result; not all experiments were run side by side. Numbers after ± are the reported error.
HCRTR1: Orexin/Hypocretin receptor type 1 (HCRTR1, Homo sapiens, UniProt O43613)
UniProt O43613, sequence (whole entry, looked up): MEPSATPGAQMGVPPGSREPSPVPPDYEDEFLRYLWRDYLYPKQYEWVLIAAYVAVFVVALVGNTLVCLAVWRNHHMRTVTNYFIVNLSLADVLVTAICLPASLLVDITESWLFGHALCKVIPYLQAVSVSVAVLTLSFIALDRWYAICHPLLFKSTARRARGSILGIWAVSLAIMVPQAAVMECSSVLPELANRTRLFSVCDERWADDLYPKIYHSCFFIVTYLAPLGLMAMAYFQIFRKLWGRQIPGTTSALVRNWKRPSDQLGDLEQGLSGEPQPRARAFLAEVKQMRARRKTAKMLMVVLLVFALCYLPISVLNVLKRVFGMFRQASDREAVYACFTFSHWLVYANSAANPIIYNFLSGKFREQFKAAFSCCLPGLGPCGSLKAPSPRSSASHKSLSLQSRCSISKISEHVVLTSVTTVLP

Substance | target | assay | test system | conditions | scale | quantity | result
GIGKFLHSAKKFGKAFVGEIMNS-NH2 (C-amide) | 15 bp duplex DNA | DNA binding, near-UV circular dichroism | peptide | room temperature, together with: 1.66 µM DNA, peptide titrated | – | CD slope at 272 nm | -0.066 ± 0.024
COc1cc2c(cc1OC)C(Cc1ccc3oc(C)nc3c1)N(CC(=O)NCc1ccccc1)CC2 (centres unmarked) | HCRTR1 | calcium signal, antagonist, fluorescence | – | – | – | Kb | 2.62 µM
COC(=O)CN(C[C@H]1O[C@@H](n2cnc3c(N)ncnc32)[C@H](O)[C@@H]1O)C1CC2CN(C(=O)Nc3ccc(NC(=O)C(C)(C)C)cc3)CC2C1 (some centres unmarked) | human DOT1L R231Q | inhibitor, western blot, refers to: H3K79me2 over histone H3 | H460 DOT1L R231Q | concentration not given | reference: cpd over SGC0946 | H3K79me2 level ratio | 1.91
O=C(/C=C/c1ccc2c(=O)n(CCCl)cnc2c1)NO | histone deacetylase | enzyme activity, inhibitor | HeLa nuclear extract | – | – | IC50 | 0.113 µM
C[C@H](N)C(=O)O | system A amino acid transporter, mouse | Na+-dependent uptake, substrate | Ehrlich ascites cells | 1 min, pH 7.4, together with: 107 mEq/L Na+ | – | Km | 400 µM
CC(C)N(CCC1CC2CN(C(=O)Nc3ccc(NC(=O)C(C)(C)C)cc3)CC2C1)C[C@H]1O[C@@H](n2cnc3c(N)ncnc32)[C@H](O)[C@@H]1O (some centres unmarked) | human DOT1L R231Q | inhibitor, western blot, refers to: H3K79me2 over histone H3 | H460 DOT1L R231Q | concentration not given | reference: cpd over SGC0946 | H3K79me2 level ratio | 2.19
O=c1ccc2ccccc2o1 | CYP2A6 human | 7-hydroxylation, substrate | human liver microsomes | CYP2A6 added 54 pmol/mg, ratio 0.125 | – | Vmax | 8.7 ± 1.9 min⁻¹
CC1=C(/C=C/C(C)=C/C=C/C(C)=C\C(=O)O)C(C)(C)CCC1 | thyroid hormone receptor, rat | reporter gene, agonist, luciferase reporter, qHTS | GH3.TRE-Luc | – | – | EC50 | < 10 µM
MRYAW | cytochrome P450 Blt (Micromonospora sp. MW-13) | substrate, LC-MS | peptide | overnight, 30 °C, P450 0.5 µM, together with: NADH 2 mM | – | conversion to cyclic peptide | 21%
CC[C@H]1OC(=O)[C@H](C)[C@@H](O[C@H]2C[C@@](C)(OC)[C@@H](O)[C@H](C)O2)[C@H](C)[C@@H](O[C@@H]2O[C@H](C)C[C@H](N(C)C)[C@H]2O)[C@](C)(O)C[C@@H](C)[C@@H]2N[C@@H](COCCOC)O[C@H]([C@H]2C)[C@]1(C)O | Escherichia coli 70S ribosome | binding, fluorescence anisotropy competition | – | 25 °C, together with: BODIPY-erythromycin | – | Kd | 0.0016 ± 0.0005 µM
Cn1c(=O)oc2ccc(-c3ccc(C[C@@H](C#N)NC(=O)[C@@H]4CNCCCO4)cc3)cc21 | neutrophil elastase | enzyme activity, inhibitor | human, whole blood | oral, 10 mg once daily, together with: zymosan | – | steady-state inhibition | 30%
CN(C)c1cccc2c(S(=O)(=O)N[C@H](C(=O)Nc3ccc(C(=O)NO)cc3)c3ccccc3)cccc12 | HDAC (HeLa nuclear extract) | enzyme activity, inhibitor | – | – | – | IC50 | 0.0097 ± 0.0003 µM
CC(C)(C)C(=O)Nc1ccc2nc(CN3CCC(N(CC(=O)N4CCOCC4)C[C@H]4O[C@@H](n5cnc6c(N)ncnc65)[C@H](O)[C@@H]4O)CC3)[nH]c2c1 | human DOT1L R231Q | inhibitor, western blot, refers to: H3K79me2 over histone H3 | H460 DOT1L R231Q | concentration not given | reference: cpd over SGC0946 | H3K79me2 level ratio | 1.14
GRKKRRQRRRPPQGGVHPMKSRLRRT | AT1 receptor, human | phosphoinositide turnover, antagonist | peptide, HEK293, AT1 transfected | 10 µM, 30 min, together with: angiotensin II 10 nM | – | inhibition | 94%
CN(C)C(=O)CN(C[C@H]1O[C@@H](n2cnc3c(N)ncnc32)[C@H](O)[C@@H]1O)C1CC2CN(C(=O)Nc3ccc(NC(=O)C(C)(C)C)cc3)CC2C1 (some centres unmarked) | human DOT1L R231Q | inhibitor, western blot, refers to: H3K79me2 over histone H3 | H460 DOT1L R231Q | concentration not given | reference: cpd over SGC0946 | H3K79me2 level ratio | 1.78
O=c1c(O[C@@H]2O[C@@H](CO)[C@H](O)[C@H]2O)c(-c2ccc(O)c(O)c2)oc2cc(O)cc(O)c12 | NAD(P)H quinone oxidoreductase, mouse | enzyme induction, inducer | Hepa-1c1c7 | concentration doubling activity | – | CD value | > 20 µM
CC(=O)OC(CC(=O)[O-])C[N+](C)(C)C (centres unmarked) | rhodopsin wild type-Rluc fusion | reporter gene | HEK293 | 24 h | – | EC50 | 1 µM
O=c1c(O[C@@H]2O[C@H](CO)[C@H](O)[C@H](O)[C@H]2O)c(-c2ccc(O)c(O)c2)oc2cc(O)cc(O)c12 | NAD(P)H quinone oxidoreductase, mouse | enzyme induction, inducer | Hepa-1c1c7 | concentration doubling activity | – | CD value | 19.2 ± 2.8 µM
COc1cc(C=O)ccc1O | UGT (rat) | p-NP glucuronidation, inhibitor | rat kidney microsomes | – | – | lowest inhibitory concentration | ≥ 100 µM
COc1cc2c(cc1OC)C(Cc1cccc(N(C)C)c1)N(CC(=O)NCc1ccccc1)CC2 (centres unmarked) | HCRTR1 | calcium signal, antagonist, fluorescence | – | – | – | Kb | 0.0753 µM
